Measurements from different studies.
Parts stem from different laboratories: compare values within a part only.

Block 1 — technique: protein binding microarray; form: double-stranded DNA, one strand shown; matrix: in vitro; tested at: not given; baseline: not given; direction: higher = stronger binding
Target: Histone acetyltransferase KAT6A, both winged helices, GST fusion (KAT6A, Homo sapiens, UniProt Q92794, residues 1-181)
Notes: 8-mer, flanks averaged, mean of 2 arrays, mostly near background
Target sequence (chain): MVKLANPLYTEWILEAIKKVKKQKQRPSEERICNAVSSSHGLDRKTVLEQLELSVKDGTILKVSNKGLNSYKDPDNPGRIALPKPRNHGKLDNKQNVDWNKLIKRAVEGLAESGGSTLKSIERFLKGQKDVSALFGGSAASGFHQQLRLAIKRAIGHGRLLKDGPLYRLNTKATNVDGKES
`ACCCGCTG` has an E-score of 0.19.
With `AAAAACGG` the E-score was 0.186.
`GTTGCGGA` gave an E-score of 0.0999.
`GAGGACCC` gave an E-score of -0.0257.
`ACACTTGC` has an E-score of -0.079.
`AGAAAGCT` has an E-score of -0.0342.
The E-score of `ATTAACAC` is reported as -0.0516.
The E-score of `AGCAATAG` is reported as -0.108.

Block 2 — technique: RNA Bind-n-Seq; form: RNA; matrix: in vitro; tested at: 200 nM; notes: whole 134-nt RNA, ends assumed; with: 150 mM KCl; baseline: input library; direction: higher = stronger binding
Target: Ras GTPase-activating protein-binding protein 1, full length (G3BP1, Homo sapiens, UniProt Q13283)
UniProt Q13283, sequence (whole entry, looked up): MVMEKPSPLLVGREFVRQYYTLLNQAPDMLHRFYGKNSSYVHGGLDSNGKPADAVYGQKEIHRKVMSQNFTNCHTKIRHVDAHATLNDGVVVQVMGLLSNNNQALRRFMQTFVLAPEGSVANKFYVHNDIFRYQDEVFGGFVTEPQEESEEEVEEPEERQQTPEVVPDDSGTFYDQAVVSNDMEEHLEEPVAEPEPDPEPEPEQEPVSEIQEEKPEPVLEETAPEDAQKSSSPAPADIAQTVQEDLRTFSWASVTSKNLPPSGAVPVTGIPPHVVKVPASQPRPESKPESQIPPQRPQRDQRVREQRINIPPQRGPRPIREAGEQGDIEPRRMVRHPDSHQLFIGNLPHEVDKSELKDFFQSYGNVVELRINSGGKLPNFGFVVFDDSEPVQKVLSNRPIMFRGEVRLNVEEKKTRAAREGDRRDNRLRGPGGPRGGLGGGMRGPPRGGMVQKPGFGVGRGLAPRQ
Constant ends, left off below: GGGAGUUCUACAGUCCGACGAUC … UGGAAUUCUCGGGUGUCAAGG
For `UCCUGUGCUACACAUCGUAUGUACCGAAUCGGUUUUUUGGGUUUUUUGGUUUUUUGGGGAAAGUAUUAUGUUACGCCGUUCGGAUCUGCA`, the log2 enrichment was -0.888.
`ACCAUGCAGGUGGGCAUCUUUGGGAAGUGGGGCAAGGGGGGGAUAGGGAGGGGGGUAACACUUUGGGAACAGGUGGUCCCAGGUAGUUUC` gave a log2 enrichment of 1.12.
The log2 enrichment of `CCUGUGCUACACAUCGUAUGUACCGAAUCAAACCCCCCCAAACCCCCCCAAACCCCCAAAAAAGUAUUAUGUUACGCCGUUCGGAUCUGC` is reported as 0.673.
With `AGUCCUGUGCUACACAUCGUAUGUACCGAAUCGGGGAAAGGGGUUUUUGGGGAGGGGAAAGUAUUAUGUUACGCCGUUCGGAUCUGCACU` the log2 enrichment was 0.784.
For `CCUGUGCUACACAUCGUAUGUACCGAAUCGGGGUUUUUGGGGAAAAAGGGGUUUUUGGGGAAAGUAUUAUGUUACGCCGUUCGGAUCUGC`, the log2 enrichment was 0.312.

Block 3 — technique: DNA-protein interaction ELISA; form: double-stranded DNA, one strand shown; matrix: in vitro, bacterial lysate; tested at: not given; notes: whole dsDNA probe, crude lysate protein; baseline: highest signal in screen; direction: higher = stronger binding
Target: Probable WRKY transcription factor 33, N-terminal DNA-binding domain (WRKY33, Arabidopsis thaliana, UniProt Q8S8P5, residues 169-264)
Construct (chain): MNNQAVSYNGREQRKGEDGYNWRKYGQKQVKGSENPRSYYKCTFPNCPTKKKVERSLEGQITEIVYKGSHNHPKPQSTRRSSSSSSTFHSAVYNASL
`AAAAAACACAGCATTAGGCTATCGGTAAAA` gave a relative absorbance of 20.4 % of maximum.
`AAAAAATATGTAGCTGCCGTTACGCTAAAA` has a relative absorbance of 20.7 % of maximum.
The relative absorbance of `AAAAAAACCTCTTTATTCTCGATTGTAAAA` is reported as 22.6 % of maximum.
With `AAAAAATTGGTTCTCATTTCTACTTCAAAA` the relative absorbance was 24 % of maximum.
`AAAAAAATATTTGAGCTAGGTTATCAAAAA` gave a relative absorbance of 13.5 % of maximum.
With `AAAAAAGCTAGTGCTGCCACCAACGTAAAA` the relative absorbance was 18.6 % of maximum.

Mixed results
For `PhoQ, residues 284 288 289 292 302 303 GASLAW`, the fold induction was 0.836 (PhoP, residues 12 14 15 18 19 HEGLL (Escherichia coli, UniProt P23836); Sort-seq, refers to: YFP reporter; E. coli; PhoQ-PhoP variant library, with: 10 µM Mg2+; baseline: high Mg2+ state, higher = stronger signaling).
